Measured values pooled from the literature.
Protocols differ between the studies behind these lines. ± marks the error that the study gave.
FGFR1: Fibroblast growth factor receptor 1 (FGFR1, Homo sapiens, UniProt P11362)
UniProt P11362, sequence (whole entry, looked up): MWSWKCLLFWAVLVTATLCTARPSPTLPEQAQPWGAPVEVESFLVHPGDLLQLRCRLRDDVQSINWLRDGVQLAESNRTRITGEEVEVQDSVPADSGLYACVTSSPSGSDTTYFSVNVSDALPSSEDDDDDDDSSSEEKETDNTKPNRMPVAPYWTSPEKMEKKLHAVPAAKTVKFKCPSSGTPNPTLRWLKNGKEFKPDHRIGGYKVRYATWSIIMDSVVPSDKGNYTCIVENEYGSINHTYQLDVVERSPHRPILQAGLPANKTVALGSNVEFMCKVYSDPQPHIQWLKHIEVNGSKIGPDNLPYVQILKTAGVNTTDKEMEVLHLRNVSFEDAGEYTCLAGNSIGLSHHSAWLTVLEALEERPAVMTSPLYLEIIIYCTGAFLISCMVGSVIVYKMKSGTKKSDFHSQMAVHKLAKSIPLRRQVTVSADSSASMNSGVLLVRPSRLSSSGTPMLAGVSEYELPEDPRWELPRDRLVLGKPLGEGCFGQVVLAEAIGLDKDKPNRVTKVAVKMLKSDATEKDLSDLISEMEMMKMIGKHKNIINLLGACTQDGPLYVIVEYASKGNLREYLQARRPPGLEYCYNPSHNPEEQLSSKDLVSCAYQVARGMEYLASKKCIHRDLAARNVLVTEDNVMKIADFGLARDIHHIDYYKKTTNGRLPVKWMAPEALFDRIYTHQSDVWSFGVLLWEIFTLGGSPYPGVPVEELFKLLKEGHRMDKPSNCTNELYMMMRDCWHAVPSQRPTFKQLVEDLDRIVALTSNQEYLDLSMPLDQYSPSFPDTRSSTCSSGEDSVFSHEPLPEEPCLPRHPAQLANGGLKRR
UniProt P49720, sequence (whole entry, looked up): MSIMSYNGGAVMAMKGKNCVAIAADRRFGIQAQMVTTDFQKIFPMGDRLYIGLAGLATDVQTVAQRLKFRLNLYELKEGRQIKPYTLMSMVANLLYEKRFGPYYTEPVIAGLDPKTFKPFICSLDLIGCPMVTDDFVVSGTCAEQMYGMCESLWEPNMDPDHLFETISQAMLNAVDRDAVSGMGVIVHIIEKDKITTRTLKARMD
UniProt Q8VYV7, sequence (whole entry, looked up): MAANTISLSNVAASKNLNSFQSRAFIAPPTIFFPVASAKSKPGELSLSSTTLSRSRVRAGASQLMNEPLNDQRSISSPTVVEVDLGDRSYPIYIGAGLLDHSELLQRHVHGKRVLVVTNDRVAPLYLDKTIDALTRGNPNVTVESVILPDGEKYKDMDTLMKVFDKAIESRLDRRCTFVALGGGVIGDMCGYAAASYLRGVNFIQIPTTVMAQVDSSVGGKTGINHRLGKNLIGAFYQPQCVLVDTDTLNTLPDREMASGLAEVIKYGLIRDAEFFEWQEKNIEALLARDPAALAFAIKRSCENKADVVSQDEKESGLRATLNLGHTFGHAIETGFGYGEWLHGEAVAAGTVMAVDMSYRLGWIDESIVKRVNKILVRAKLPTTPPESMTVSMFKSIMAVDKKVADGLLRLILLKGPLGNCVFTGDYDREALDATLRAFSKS
UniProt Q86TM6, sequence (whole entry, looked up): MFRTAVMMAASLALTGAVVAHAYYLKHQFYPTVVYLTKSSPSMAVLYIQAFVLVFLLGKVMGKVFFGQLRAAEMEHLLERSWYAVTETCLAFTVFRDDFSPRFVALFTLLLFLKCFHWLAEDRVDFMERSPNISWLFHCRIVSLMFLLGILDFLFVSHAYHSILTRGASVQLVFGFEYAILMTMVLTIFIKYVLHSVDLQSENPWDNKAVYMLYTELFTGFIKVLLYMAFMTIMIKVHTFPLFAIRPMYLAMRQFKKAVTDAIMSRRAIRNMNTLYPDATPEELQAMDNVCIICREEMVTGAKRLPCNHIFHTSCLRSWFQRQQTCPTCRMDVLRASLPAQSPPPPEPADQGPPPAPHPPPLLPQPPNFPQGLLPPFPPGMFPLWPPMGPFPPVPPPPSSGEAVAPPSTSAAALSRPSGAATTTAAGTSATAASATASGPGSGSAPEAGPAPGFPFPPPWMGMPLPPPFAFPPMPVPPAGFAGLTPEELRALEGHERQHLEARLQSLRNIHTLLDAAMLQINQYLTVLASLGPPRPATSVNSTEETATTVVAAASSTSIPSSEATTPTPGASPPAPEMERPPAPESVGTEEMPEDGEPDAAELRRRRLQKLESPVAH
UniProt O15379, sequence (whole entry, looked up): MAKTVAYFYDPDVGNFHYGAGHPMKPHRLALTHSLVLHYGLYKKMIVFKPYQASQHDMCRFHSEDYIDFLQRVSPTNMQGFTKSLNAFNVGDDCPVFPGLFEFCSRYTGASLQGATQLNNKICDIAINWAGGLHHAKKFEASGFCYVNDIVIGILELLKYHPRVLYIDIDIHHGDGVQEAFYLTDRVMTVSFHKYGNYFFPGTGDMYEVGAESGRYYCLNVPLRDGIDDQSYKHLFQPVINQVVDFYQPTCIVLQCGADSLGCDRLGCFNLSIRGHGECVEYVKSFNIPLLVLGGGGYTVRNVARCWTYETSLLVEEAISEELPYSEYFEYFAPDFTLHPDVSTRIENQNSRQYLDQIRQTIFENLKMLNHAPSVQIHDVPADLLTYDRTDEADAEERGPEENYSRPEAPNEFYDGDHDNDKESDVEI
UniProt Q9GZX7, sequence (whole entry, looked up): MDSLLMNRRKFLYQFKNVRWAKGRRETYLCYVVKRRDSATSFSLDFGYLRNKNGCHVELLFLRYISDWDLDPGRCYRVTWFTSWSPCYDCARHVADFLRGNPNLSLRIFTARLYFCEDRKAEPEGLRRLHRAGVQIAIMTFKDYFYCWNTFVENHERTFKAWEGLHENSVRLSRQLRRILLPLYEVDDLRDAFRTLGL
UniProt P31424, sequence (whole entry, looked up): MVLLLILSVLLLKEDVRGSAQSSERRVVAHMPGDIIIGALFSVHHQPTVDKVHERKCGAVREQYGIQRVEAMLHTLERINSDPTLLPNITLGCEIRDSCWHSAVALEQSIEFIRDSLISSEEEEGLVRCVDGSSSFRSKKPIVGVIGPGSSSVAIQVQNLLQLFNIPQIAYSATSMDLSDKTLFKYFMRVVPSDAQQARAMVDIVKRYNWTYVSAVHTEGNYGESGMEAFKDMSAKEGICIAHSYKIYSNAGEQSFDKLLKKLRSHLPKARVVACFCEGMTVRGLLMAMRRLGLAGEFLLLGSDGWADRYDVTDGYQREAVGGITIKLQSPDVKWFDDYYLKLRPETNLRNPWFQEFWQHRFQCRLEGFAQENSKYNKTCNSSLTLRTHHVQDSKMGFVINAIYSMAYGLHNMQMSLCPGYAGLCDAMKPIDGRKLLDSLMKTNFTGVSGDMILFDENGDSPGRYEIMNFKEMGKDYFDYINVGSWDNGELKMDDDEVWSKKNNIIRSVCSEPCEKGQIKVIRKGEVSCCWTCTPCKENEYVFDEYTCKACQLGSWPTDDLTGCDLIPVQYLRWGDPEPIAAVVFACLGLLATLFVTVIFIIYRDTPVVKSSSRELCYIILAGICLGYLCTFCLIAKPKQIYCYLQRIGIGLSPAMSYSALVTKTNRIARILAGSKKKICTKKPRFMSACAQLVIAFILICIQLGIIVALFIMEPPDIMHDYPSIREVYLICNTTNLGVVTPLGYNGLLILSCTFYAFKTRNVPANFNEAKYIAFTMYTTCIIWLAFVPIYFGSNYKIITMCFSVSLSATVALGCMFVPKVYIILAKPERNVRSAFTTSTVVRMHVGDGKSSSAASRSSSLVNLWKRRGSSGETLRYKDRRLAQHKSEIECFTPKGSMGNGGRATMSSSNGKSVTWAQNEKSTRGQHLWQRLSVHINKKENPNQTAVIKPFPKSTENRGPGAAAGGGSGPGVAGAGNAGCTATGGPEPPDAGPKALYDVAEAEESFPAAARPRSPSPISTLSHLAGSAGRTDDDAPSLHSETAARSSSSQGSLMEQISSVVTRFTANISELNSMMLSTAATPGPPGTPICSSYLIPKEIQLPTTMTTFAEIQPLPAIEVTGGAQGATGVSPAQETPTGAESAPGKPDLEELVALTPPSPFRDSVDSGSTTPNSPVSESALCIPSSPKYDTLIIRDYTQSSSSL
UniProt P48775, sequence (whole entry, looked up): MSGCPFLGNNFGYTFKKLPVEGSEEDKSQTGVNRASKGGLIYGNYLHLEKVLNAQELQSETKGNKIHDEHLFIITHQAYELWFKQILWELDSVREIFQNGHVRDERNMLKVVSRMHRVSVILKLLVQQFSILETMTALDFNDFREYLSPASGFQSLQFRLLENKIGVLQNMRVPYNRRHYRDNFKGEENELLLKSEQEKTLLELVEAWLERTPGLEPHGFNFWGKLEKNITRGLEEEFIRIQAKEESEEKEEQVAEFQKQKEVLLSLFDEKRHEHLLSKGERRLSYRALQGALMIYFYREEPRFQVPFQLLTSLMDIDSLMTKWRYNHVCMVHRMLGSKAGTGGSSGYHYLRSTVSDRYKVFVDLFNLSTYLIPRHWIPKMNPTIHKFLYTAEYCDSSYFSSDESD
UniProt P07237, sequence (whole entry, looked up): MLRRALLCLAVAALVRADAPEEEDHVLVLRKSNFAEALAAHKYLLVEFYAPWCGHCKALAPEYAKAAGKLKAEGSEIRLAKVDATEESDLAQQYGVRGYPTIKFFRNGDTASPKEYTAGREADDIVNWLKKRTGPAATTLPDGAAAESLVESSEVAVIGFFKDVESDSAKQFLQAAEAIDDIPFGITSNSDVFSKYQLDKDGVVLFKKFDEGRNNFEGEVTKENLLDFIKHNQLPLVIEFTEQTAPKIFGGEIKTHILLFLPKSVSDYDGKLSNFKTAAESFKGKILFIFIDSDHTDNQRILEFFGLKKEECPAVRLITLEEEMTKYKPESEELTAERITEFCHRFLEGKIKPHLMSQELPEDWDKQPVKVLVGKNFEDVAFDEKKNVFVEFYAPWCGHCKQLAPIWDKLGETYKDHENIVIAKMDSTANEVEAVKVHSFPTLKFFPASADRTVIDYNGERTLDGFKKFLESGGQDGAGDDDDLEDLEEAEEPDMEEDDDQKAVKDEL

Compound	target	test	test system	setting	IC50
CC(C)c1ccc(CN2CCN(CC(=O)c3ccc4[nH]c(=O)[nH]c4c3)CC2)cc1	Single-stranded DNA cytosine deaminase (AICDA, Homo sapiens, UniProt Q9GZX7)	deaminase activity, inhibitor, alkaline cleavage	293T lysate, untagged	pH 7.2, 37 °C	90000 nM
CN(C)C(=O)C1CN1S(=O)(=O)c1ccc(N(C)C)c2ccccc12 (centres unmarked)	P4HB (Homo sapiens, UniProt P07237)	enzyme activity, inhibitor, absorbance	–	pH 7.6	750 nM
CCc1ccc(CCNC(=O)c2c(O)c(O)cc3c(O)c(-c4c(C)cc5c(C(=O)NCCc6ccc(CC)cc6)c(O)c(O)cc5c4O)c(C)cc23)cc1	BCL2L2 (Homo sapiens, UniProt Q92843)	ligand displacement, FP	–	–	~1000 nM
CC(C)(O)C(=O)C(=O)Nc1cccc(C(=O)N2CCC(c3cccc(CN)c3)CC2)c1	Tryptase beta-1 (Homo sapiens, UniProt Q15661)	enzyme activity, inhibitor	–	tryptase 10 pM, with: AMC substrate	2.74 nM
CCN(CC)CCNC(=O)c1cc2c(Oc3ccc(NC(=S)NC4CC4)c(Cl)c3)ccnc2cc1OC	FGFR1	–	–	–	8260 nM
CC(C)OP(=O)(C[C@H]1C[C@@](O)(C(=O)O)C[C@@H](O)[C@@H]1O)OC(C)C	3-dehydroquinate synthase, chloroplastic (DHQS, Arabidopsis thaliana, UniProt Q8VYV7)	enzyme activity, inhibitor, malachite green phosphate release	–	29 °C	930000 nM
O=C(CCCCCCN(Cc1cccnc1)Cc1cccnc1)NO	HDAC3 (Homo sapiens, UniProt O15379)	enzyme activity, inhibitor, fluorescence	–	–	480 nM
N=C(N)SCc1cccc(CSC(=N)N)c1	TDO2 (Homo sapiens, UniProt P48775)	–	–	with: L-tryptophan 2 mM	> 30000 nM
CCNCCN(CC)c1nc(Nc2ccc3ncoc3c2)nc(N[C@@H](C)C2CCCCC2)n1	SYVN1 (Homo sapiens, UniProt Q86TM6)	enzyme activity, inhibitor, radiometric	–	–	35000 nM
O[C@@H]1[C@@H](O)[C@@H]2O[C@@H]2[C@H](Cn2cc(CCCOCC34CC5CC(CC(C5)C3)C4)nn2)[C@H]1O	gba1 (Danio rerio, UniProt E7EZM1)	–	–	–	4 to 6 nM
Cc1ccc(CNC(=O)[C@@H]2Cc3cccc(c3)Oc3cccc(c3)C[C@H](N)C(=O)N[C@@H](CCc3ccccc3)C(=O)N2)cc1	20S proteasome (Plasmodium falciparum, UniProt A0A5K1K7U1+Q8IJT1)	β5 activity, inhibitor	–	with: Suc-LLVY-AMC, PA28α-activated	1250 nM
O=C(N[C@@H](Cc1coc2ccccc12)B(O)O)[C@@H]1C[C@H]2CC[C@@H]1O2	Proteasome subunit beta type-10 / Proteasome subunit beta type-3 (Homo sapiens, UniProt P40306+P49720)	MECL-1 enzyme activity, inhibitor	human immunoproteasome	2 h preincubation, with: Ac-RLR-AMC	> 30000 nM
COC(=O)c1cc2c(Oc3ccc(NC(=S)NC4CC4)c(Cl)c3)ccnc2cc1OC	FGFR1	–	–	–	2390 nM
O=C(Nc1ccc(C(=O)Nc2ccc(C(=O)Nc3ccc(S(=O)(=O)O)c4cc(S(=O)(=O)O)cc(S(=O)(=O)O)c34)cc2)cc1)Nc1ccc(C(=O)Nc2ccc(C(=O)Nc3ccc(S(=O)(=O)O)c4cc(S(=O)(=O)O)cc(S(=O)(=O)O)c34)cc2)cc1	Neutrophil elastase (ELANE, Homo sapiens, UniProt P08246)	enzyme activity, inhibitor	–	extrapolated to no NaCl	~4.4 nM
Cc1ccccc1-c1nc(Nc2nc3ccccc3o2)ncc1C#N	Grm5 (Rattus norvegicus, UniProt P31424)	calcium signal, antagonist	–	–	403 nM
Cc1cc(N2CCN(C(=O)CN3CCN(c4ccccc4)CC3)CC2)n2ncnc2n1	Aromatase (CYP19A1, Homo sapiens, UniProt P11511)	enzyme activity, inhibitor	–	–	567 nM
O=C(O)[C@@H]1Cc2c([nH]c3ccccc23)[C@@H](c2ccc(Br)cc2Cl)N1	MEP cytidylyltransferase IspD (Plasmodium falciparum, UniProt Q8I273)	enzyme activity, inhibitor, fluorimetric pyrophosphate	–	–	34 ± 11 nM

Some of these lines once more:
Compound	target	test	test system	setting	IC50
O=C(O)[C@@H]1Cc2c([nH]c3ccccc23)[C@@H](c2ccc(Br)cc2Cl)N1	MEP cytidylyltransferase IspD (Plasmodium falciparum, UniProt Q8I273)	enzyme activity, inhibitor, fluorimetric pyrophosphate	–	–	34 ± 11 nM
